Measurements collected from several papers.
A part holds a random share of what one study measured.

Sample 1 — method: protein-binding microarray; form: double-stranded DNA, one strand shown; medium: in vitro; concentration: 940 nM top; setting: 60-bp whole probe; added: salmon DNA 0.4 mg/ml; relative to: random background probes; reading: higher = stronger binding; all sequences stand within: GCCTAGCAC … GTCTTGATTCGCTTGACGCTGCTG
Target: Interferon regulatory factor 5, full length, phosphomimetic (IRF5, Homo sapiens, UniProt Q13568-2, residues 1-514, S451D/S453D/S456D/S462D)
`TTAGGTTTCGGTATCGGTCAGTGCTAG`: “fitted relative affinity” 15.6 z-score.
`TCATGTCTGGAGTCTCTGACTGTGCTA`: “fitted relative affinity” -0.111 z-score.
`TTAGGTATCTGTCTCGGTTAGTGCTAG`: “fitted relative affinity” 4.17 z-score.
`TTAGAGCTCAGTCTCGATTAGTGCTAG` — result for “fitted relative affinity”: 2.75 z-score.
`TTAGCTTTCCTTTCCCTTTAGTGCTAG` — result for “fitted relative affinity”: 1.22 z-score.
`CTCCCCCTCAGATCTGCCGTCGTGCTA` — result for “fitted relative affinity”: -0.23 z-score.
`ACCTCTCACGCATCTGAAACCGTGCTA`: “fitted relative affinity” 1.02 z-score.
Under “fitted relative affinity”, `TTACGTATCGGGTTTCGGTTAGTGCTA` is recorded as 8.2 z-score.
Under “fitted relative affinity”, `TCCTGTATGGATGTGTTTTAGTGCTAG` is recorded as 0.206 z-score.
For `GACGGTTTCGGGTTTCGGGCCGTGCTA`, “fitted relative affinity” read 8.32 z-score.
Under “fitted relative affinity”, `TCATGTCTGTTTCCTCTTACTGTGCTA` is recorded as 1.82 z-score.
`GACGGTATCCGTCTCCTGACGTGCTAG` — result for “fitted relative affinity”: 0.25 z-score.
`TTAGGACTGGGTCTCGGTTGGTGCTAG` — result for “fitted relative affinity”: 0.999 z-score.
`TTTTTTTTCCTAATTGAACCGTGCTAG` — result for “fitted relative affinity”: 0.764 z-score.
`ATGTCCTCCTCTCTCTTTCCGTGCTAG`: “fitted relative affinity” 1.34 z-score.
For `TTAGATTGCGGGACTGGATTAGTGCTA`, “fitted relative affinity” read -0.274 z-score.
For `GACGATTCCAGTTTCAAGACGTGCTAG`, “fitted relative affinity” read 1.28 z-score.
Under “fitted relative affinity”, `GGGATTTTTAGTTAGAAAAAGTGCTAG` is recorded as -0.316 z-score.
`GACGGACTGGGTATCGGGCCGTGCTAG` — result for “fitted relative affinity”: 0.362 z-score.
Under “fitted relative affinity”, `TTAGACTTCAGACTGGATTAGTGCTAG` is recorded as -0.645 z-score.
`TTAGATATCCGTTTCGATTAGTGCTAG`: “fitted relative affinity” 3.1 z-score.
For `TTAGGTTTCCTTTTCCTTTTGTGCTAG`, “fitted relative affinity” read 2.25 z-score.
Under “fitted relative affinity”, `TCAGGTCTCCTTTTCCTTTAGTGCTAG` is recorded as 0.809 z-score.
`TGTTTTAATTTTCTCTTTGGGTGCTAG`: “fitted relative affinity” 1.75 z-score.

Sample 2 — method: RNA Bind-n-Seq; form: RNA; medium: in vitro; concentration: 365 nM; relative to: no-protein control; reading: higher = stronger binding
Target: RNA binding protein fox-1 homolog 2, RRM domain, GST-SBP tag (RBFOX2, Homo sapiens, UniProt O43251-10, residues 100-194)
Setting: natural RNA segment, single round, ends assumed
All sequences stand within: GGGAGUUCUACAGUCCGACGAUC … UGGAAUUCUCGGGUGCCAA
Residues (chain): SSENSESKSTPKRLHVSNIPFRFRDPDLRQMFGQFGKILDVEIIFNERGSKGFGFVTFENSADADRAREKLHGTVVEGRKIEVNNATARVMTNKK
Under “RBNS enrichment (R)”, `ACCCUCCAGGUGCCCCUUGCCACACUGAAUGUGGGAAAGUGUGCUGUGGCUACUUCGUGGUCAGAGUGAGCCCCUUGCAGAAUCCCCACUCCAGCAAACAAAGCAACGGC` is recorded as 0.559.
For `GAAGCAAUGUGGGGCGCUGCGAGCCCCUCCCAGUCCUCUAGAGACUGUCUCCUUUCUGCCUCUGGUUCUCUUUGUUGUUGUUACGUUUCAUUCCAGUUUUUGUUUUUAAU`, “RBNS enrichment (R)” read 2.
`UACUAACCAAAGGGGCUUCCUUGUCAGGGCCUGGUGGAGUUGGUGGGUCAUCGGGGCUCACUGCCUCCUGCCCUUCUCUCCUGUCUGACCCCCACUUAGCCCUUCUCUCC` — result for “RBNS enrichment (R)”: 0.43.
For `UGCCAUCCUUGUCUCUGCUUCCUUGGGGAGGGCUGCAGGGUGGCACAGCAGCCUGGCGUCAGUGACUGGUACCCCUUCUCCUGUGUCCAGUGCAGCCAUGGCAUGCCAGA`, “RBNS enrichment (R)” read 1.53.
Under “RBNS enrichment (R)”, `UCCAGAGCUGAGCCUGACGUCUGCUCUGAAGAAUGCUUAGAAGGUUCCCAGACACCAGAGCCAGAUGUCCCCCACCACCGGUCAGGACCUCCUUGAGGUGCACAAGCACG` is recorded as 1.57.
Under “RBNS enrichment (R)”, `GUGUCGCCCUUCAGGAACUCAGAACCCGGGUGUCAGCUCUUAACAUCUCUAAGCCUUUUAAUAAAACUGUACUGAAGUUUUUAUCAGCUAAGAGUCAGUUCUUCAAUUCU` is recorded as 0.343.
`AUAAAGCAUUGUCUGUUCCAGAGUGGCCUUUGAAGAGACUGAAUAAUCACUUCGUCAUAAUGUUAAGGGAGAUGCUAGUGUGUGGCAGCCAUGAAAAGUUACACAUACAC`: “RBNS enrichment (R)” 0.422.
`UGGACCUUGAGCAACUGUGCACGCUUCACUCUAAUAGCAUGGUUUGGCCAGUGUAUUAGCUCUCAAGUUCUUUCCUCAAUUGACUUCUGCUAUUAAAGUAAUGAUUUCAU`: “RBNS enrichment (R)” 3.57.
`UUCUAUGGGGUAGCUAAGUUUGGGAAGCCUAUGAACUGUGGGUCCUGCCAAGGUUCUCAAAGCACUUAUCCUCAGGAUAGGGAAAUAGCAGGGACGCCUUGUCCCCAAGA` — result for “RBNS enrichment (R)”: 0.403.
Under “RBNS enrichment (R)”, `CCCUGCCCCCCUAGCUGAAGGGGUGUGCCAUACUACCUUAAAUGCAAACACUAGAUAUGCAAAACUGGAUUUUUUUAAUUUAUUUUUUAAAAGAGGGAGGUGUGGUAUAU` is recorded as 0.614.
`AUGGGGGCAAAUGGCCCUUUUGGCUGUCCCCUCGCCAGGUAAUGGUAGUUCCAGUGGGACCAACCUGUGAUGAAUAUGCCCAAAAGGUACGACAACAAUUCCACGAUGCC`: “RBNS enrichment (R)” 0.331.
`UUUCCCAAGAGCAUGAUAGAAAGAUCCCUGGACUCUGCUGUUACAAGCGUGGACUCUUGUCUCACCUCAUCAAUUAUUCUGUGAUGUUGAAUCAGGAUUCUAAAGGCUAG` — result for “RBNS enrichment (R)”: 43.7.

Sample 3 — method: RNA Bind-n-Seq; form: RNA; medium: in vitro; concentration: not given; relative to: input RNA pool; reading: higher = stronger binding
Target: RING finger protein unkempt homolog, zinc fingers 1-6, GST-SBP tag (UNK, Homo sapiens, UniProt Q9C0B0, residues 30-357)
Setting: RNA with constant flanks, human and mouse sites, ends assumed
All sequences stand within: GGGAGUUCUACAGUCCGACGAUC … CAACAGAGGAUUGAGCAUCA
Construct (chain): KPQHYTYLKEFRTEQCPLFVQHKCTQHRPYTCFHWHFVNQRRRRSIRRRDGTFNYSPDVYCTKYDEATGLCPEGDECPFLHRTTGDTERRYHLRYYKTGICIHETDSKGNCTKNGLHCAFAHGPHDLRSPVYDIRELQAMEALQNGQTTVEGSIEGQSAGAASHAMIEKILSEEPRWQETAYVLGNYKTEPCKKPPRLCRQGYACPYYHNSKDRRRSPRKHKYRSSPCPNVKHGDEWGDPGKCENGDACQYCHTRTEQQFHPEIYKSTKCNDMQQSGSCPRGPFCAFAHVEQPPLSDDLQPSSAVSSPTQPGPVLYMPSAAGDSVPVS
With `UUUAAAAGAUGUUUGAAUUGUGUCUUAAUCCUUCAGUGUUUAACUUUCUUCAUUUGCAACAGUGUUGGCACCGUGGUGAUGGGAGGCCUCUGCCUGUGAGGACAGCUAAGGCUGGGUUAU` the bound/input enrichment was 0.174 ratio.
With `AAGACAGAGCAGUACGUGGAACUUCACAAAGGCGAGGUGGUAGAUGUCAUGGUCAUUGGACGGCUAUGAUGGUGACCAACAGGAGAAAGUUUUGAUGCAUGUCCACAUAUCAUUGACUGU` the bound/input enrichment was 0.188 ratio.
`GGGCUCCGGACAGUGACAUCCUCAAGUCACCGAGCUCGGGAAGACAGCUGGCUAAAGUCCUUGUUUGUCAGAAAGGUCGAUCCAAGGAAAGAUGCCCACUCCAACCUCCUAGCCAAAAAG` gave a bound/input enrichment of 0.0864 ratio.
`AACUGGUGCAGCGCUGUCAGCAGGCAUACAUGCAGUACAUCCAUCACCGCUUAAUUCACCUGACUCCUGCCGACUACGACGACUUUGUGAAUGCAAUCCGCAGCGCUCGCAGCGCCUUCU` has a bound/input enrichment of 0.123 ratio.
The bound/input enrichment of `GAUUUGCCACACAACUUCACAUCUAUAAUUUGUCAACCCAAACUCUUCUAGCCAAUGAUGGAGCAUGUGCGAAUUCACCCGGAAUUAGUGACUGGAUCCAAGGACCAUGAACUGGACCCU` is reported as 0.492 ratio.
For `CCUGGGCUUGCGCUGCUGUGCCAGCCGCAUCCAGGGCUCUCCCCGCUCUCCGCAGGCCUUUAUAGAGGCGGCCAGGGCAUGGAGCCCCUUCCAGCAAGAGCCAUGGGCACUCCGGCUCAC`, the bound/input enrichment was 0.101 ratio.
The bound/input enrichment of `CCUUCCCCGACCACACCCCAAUGCCUUCCCAGCUUGGAAGCCAAGGCAGCUGAUGAAGGGAGCUCAGGAGAGCCGUCUUCAGCUGGGCUGGGGUUGGGGCUGCUGUGAGGAAAACCUGCC` is reported as 0.0834 ratio.
For `CCUGACAGCUGGGUGUGUGACUUAGGUAGGUGAGCCUGUGAAACAGUAUGAAGAGAAGAAAAUAGCCUUUUAAAGAGACUGGCCCACAGAAAGGAUGGCCUUCUUGGACAAUCCAACUAU`, the bound/input enrichment was 0.336 ratio.
For `AAUGUGUCCAUGCAAAAUGCUGUGAAUGAGCCUGUACAGAAACUAAUGCGGAAAAAGCAAUUAGACGUAGCAGAAUUUAGCAUCUAUUGGGAUGUCGAUUGCACUUUACUGGGGGAUUUG`, the bound/input enrichment was 0.587 ratio.
`AUGAUCACAGUAGAUAUUAUUCCUUCAGGUUGGAAUUCAGCUGAUGGUAAAAGUGAUAAAACUAAAAGUGCGCCUUCAAGAGAUCCAGAAAGAUUGCAGAAAAUAAAAGAGAGCCUCCUU` gave a bound/input enrichment of 0.426 ratio.
`AAGAGCUAACAGAAAACAUUUUGAAAGUGCUCAAAGAACAAGCUGCUGAUUCUAUUUUGGUACUAGAAGCAGCCCUAAAAUUAAACAAGGAUCUUUAUGUCCAUACGAUGAGAACUCUAG` has a bound/input enrichment of 0.165 ratio.

Sample 4 — method: universal PBM; form: double-stranded DNA, one strand shown; medium: in vitro; concentration: 600 nM; reading: higher = stronger binding
Target: Sal-like protein 4, full length isoform A (SALL4, Homo sapiens, UniProt Q9UJQ4, residues 1-1053)
Sequence of UniProt Q9UJQ4 (whole entry, looked up): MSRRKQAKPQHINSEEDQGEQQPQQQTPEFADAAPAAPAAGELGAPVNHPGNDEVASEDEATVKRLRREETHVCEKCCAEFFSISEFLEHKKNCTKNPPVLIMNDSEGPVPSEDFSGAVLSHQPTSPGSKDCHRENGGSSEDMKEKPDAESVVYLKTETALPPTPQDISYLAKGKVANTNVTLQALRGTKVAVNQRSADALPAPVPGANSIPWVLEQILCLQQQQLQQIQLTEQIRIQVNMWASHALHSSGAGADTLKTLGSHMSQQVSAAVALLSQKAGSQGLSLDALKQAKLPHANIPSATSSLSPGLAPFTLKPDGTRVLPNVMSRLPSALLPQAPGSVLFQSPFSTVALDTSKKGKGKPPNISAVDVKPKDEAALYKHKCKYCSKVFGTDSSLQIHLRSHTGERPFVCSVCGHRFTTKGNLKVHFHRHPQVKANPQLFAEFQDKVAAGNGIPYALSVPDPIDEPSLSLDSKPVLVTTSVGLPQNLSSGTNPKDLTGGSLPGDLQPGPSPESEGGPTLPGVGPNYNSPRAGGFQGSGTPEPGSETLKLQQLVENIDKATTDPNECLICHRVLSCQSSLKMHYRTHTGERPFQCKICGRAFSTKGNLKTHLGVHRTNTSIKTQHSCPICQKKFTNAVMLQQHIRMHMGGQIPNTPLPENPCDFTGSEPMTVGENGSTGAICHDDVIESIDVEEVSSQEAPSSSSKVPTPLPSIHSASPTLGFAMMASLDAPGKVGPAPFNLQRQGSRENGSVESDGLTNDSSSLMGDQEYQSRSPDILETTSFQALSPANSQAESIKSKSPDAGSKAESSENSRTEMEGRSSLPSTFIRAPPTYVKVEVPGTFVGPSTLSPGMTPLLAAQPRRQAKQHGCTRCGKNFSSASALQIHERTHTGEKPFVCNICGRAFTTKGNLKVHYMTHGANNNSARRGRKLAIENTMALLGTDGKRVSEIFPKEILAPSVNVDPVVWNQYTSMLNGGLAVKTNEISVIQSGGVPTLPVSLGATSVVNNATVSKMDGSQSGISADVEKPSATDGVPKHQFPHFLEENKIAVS
Setting: 8-mer, flanks averaged, mean of replicates
With `ACCTCCAT` the E-score was -0.0927.
`AGCATTGC` has an E-score of -0.0262.
With `AGGCAGAC` the E-score was -0.139.
The E-score of `AGTAGGCC` is reported as -0.264.
`AACGGCGT` gave an E-score of -0.041.
`GCCGTCCC` has an E-score of -0.282.
The E-score of `ACTATGGA` is reported as 0.165.
With `ACCCGCAT` the E-score was -0.157.
With `GCAAGGGC` the E-score was -0.293.
With `GCGACCTA` the E-score was -0.151.
`AAGGGGGG` gave an E-score of -0.37.
For `ACCGATCG`, the E-score was -0.0742.
The E-score of `CGGCCACG` is reported as -0.293.
With `CACATTCG` the E-score was 0.124.
For `ATTAGGTA`, the E-score was 0.245.
`TGACATCA` has an E-score of 0.141.
`CCTAATCA` has an E-score of 0.21.
`AGGAACAA` gave an E-score of -0.0325.
With `ATACGATC` the E-score was 0.0231.
With `ATAGAAGG` the E-score was 0.0368.
For `ACTAGAGA`, the E-score was -0.000145.
The E-score of `CCCTTAGC` is reported as -0.202.
For `CGAATTCA`, the E-score was -0.0519.

Repeated from above (sample 1):
`TCATGTCTGGAGTCTCTGACTGTGCTA`: “fitted relative affinity” -0.111 z-score.
`TTAGGTATCTGTCTCGGTTAGTGCTAG`: “fitted relative affinity” 4.17 z-score.
`TTAGAGCTCAGTCTCGATTAGTGCTAG` — result for “fitted relative affinity”: 2.75 z-score.
`TTAGCTTTCCTTTCCCTTTAGTGCTAG` — result for “fitted relative affinity”: 1.22 z-score.
`CTCCCCCTCAGATCTGCCGTCGTGCTA` — result for “fitted relative affinity”: -0.23 z-score.
`ACCTCTCACGCATCTGAAACCGTGCTA`: “fitted relative affinity” 1.02 z-score.
Under “fitted relative affinity”, `TTACGTATCGGGTTTCGGTTAGTGCTA` is recorded as 8.2 z-score.
Under “fitted relative affinity”, `TCCTGTATGGATGTGTTTTAGTGCTAG` is recorded as 0.206 z-score.
For `GACGGTTTCGGGTTTCGGGCCGTGCTA`, “fitted relative affinity” read 8.32 z-score.
Under “fitted relative affinity”, `TCATGTCTGTTTCCTCTTACTGTGCTA` is recorded as 1.82 z-score.
